Assay results gathered from unrelated publications.
Each numbered part is a random draw from the data of one study; scales do not carry over between parts. Changes are numbered by the printed parent chain.

Sample 1
Target: CCNB3, cyclin fold, Cln2 fusion (human)
Technique: yeast growth competition, sequencing
Matrix: yeast
Setting: weak parent motif
Relative to: not given
Reading: higher = stronger binding
Quantity: normalised enrichment score
Parent: MICAL3 docking peptide (human); LQLRRQLSFSEDS
LQLRRQLSFYEDS [S10Y]: 0.354
LQLRRQLSISEDS [F9I]: -0.318
LQLRRQLSRSEDS [F9R]: 0.372
LQLDRQLSFSEDS [R4D]: -0.0167
LQLRRQLSFSEIS [D12I]: 0.347
LQLRRQLSFDEDS [S10D]: 0.23
LQLRRCLSFSEDS [Q6C]: 0.471
LQLRRQLNFSEDS [S8N]: 0.0919
LQLRRQLTFSEDS [S8T]: 0.222
LQLRRQVSFSEDS [L7V]: 0.114
LQQRRQLSFSEDS [L3Q]: -0.105
LQLWRQLSFSEDS [R4W]: 0.863
LQLRRQLSFSEHS [D12H]: 0.2

Sample 2
Target: Sox-I, HMG box (Salpingoeca helianthica)
Technique: Spec-seq
Form: double-stranded DNA, one strand shown
Matrix: in vitro
Concentration: not given
Setting: whole probe, mean of replicates
Relative to: not given
Reading: lower = stronger binding
Quantity: relative binding energy
Shared flanks, not repeated: GAGTCGTCTCGTCAGCAC … CCGTAGAGCACTCAGGTC
Construct (chain): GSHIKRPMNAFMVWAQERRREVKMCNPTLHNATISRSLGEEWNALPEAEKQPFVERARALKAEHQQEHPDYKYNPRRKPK
CATAACG: 0.429 ln ratio
CGTCGTT: 0.677 ln ratio
CGCAGTT: 0.583 ln ratio
CATCAGG: 0.819 ln ratio
CTGCGTT: 0.954 ln ratio
ATGCGTT: 0.693 ln ratio
GAAAGTT: 1 ln ratio
CATTCAA: 0.242 ln ratio
CATCTAG: 0.712 ln ratio
GAGAGTT: 0.909 ln ratio
ACACGTT: -0.0522 ln ratio
CATAGGC: 0.359 ln ratio
CATGAAT: 0.773 ln ratio
CATATTG: 0.446 ln ratio
AACGGTT: -1.41 ln ratio
CATGTAG: 1.01 ln ratio

Sample 3
Target: Histone acetyltransferase KAT6A, winged helix 2, GST fusion (KAT6A, Homo sapiens, UniProt Q92794, residues 85-181)
Technique: protein binding microarray
Form: double-stranded DNA, one strand shown
Matrix: in vitro
Concentration: not given
Setting: 8-mer, flanks averaged, mean of 2 arrays, mostly near background
Relative to: not given
Reading: higher = stronger binding
Quantity: E-score
Construct (chain): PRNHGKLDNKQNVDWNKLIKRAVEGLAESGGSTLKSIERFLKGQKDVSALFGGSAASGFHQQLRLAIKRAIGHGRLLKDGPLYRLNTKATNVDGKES
AACCCTTG: -0.0565
TCACCCCA: -0.11
TTTAAAAA: 0.221
GCCAAATA: -0.119
ATATGCGC: -0.0581
AACGGTAC: 0.0394
AAGACAAC: 0.116
CCGGGCCG: 0.337
AGCCCCTC: -0.00715
ACAGAATC: -0.0599
CTCAAGAA: -0.138
ACCTATAA: -0.182
TCACCTAA: 0.00568
AGATGAGG: -0.131
ATGAGGGG: -0.0519
ATTGTTTA: 0.0354
CGCGCTGA: -0.0907
ATACTTAA: -0.021
TCATGCGA: 0.063
AATTGGAG: -0.179
CCGAGTGC: 0.167
CGAGGCTC: 0.0629
AAGCAGGA: 0.0196

Single results of other studies
PhoQ, residues 284 288 289 292 302 303 TTSMTC
fold induction (PhoP, residues 12 14 15 18 19 TQAIL (Escherichia coli, UniProt P23836); Sort-seq, refers to: YFP reporter; E. coli; PhoQ-PhoP variant library, together with: 10 µM Mg2+; relative to: high Mg2+ state, higher = stronger signaling): 2.83

A few entries again (sample 2):
CATAACG: 0.429 ln ratio
CGTCGTT: 0.677 ln ratio
CGCAGTT: 0.583 ln ratio
CATCAGG: 0.819 ln ratio
CTGCGTT: 0.954 ln ratio
ATGCGTT: 0.693 ln ratio
GAAAGTT: 1 ln ratio
